Results from different studies.
Compare with care: the assays were run in different laboratories. Several values in a cell are separate wells, animals, samples, runs or records. ± marks the error that the study gave. Values after ≈ are worked out from the molar mass of the structure shown.

Compound | tested on | test | system | conditions | scale | endpoint | value
CC(C)CC(C(=O)N1CC2(CC1C#N)C(=O)Nc1ccccc12)N(C)C(=O)c1cc2c(F)cc(F)c(F)c2[nH]1 (stereo not shown) | Betacoronavirus 1 | viral replication | HCT-8, OC43 | 0.5 µM |  | inhibition | 99.5%
Cc1cc(C(=O)Nc2nc3cccc(C)c3n2[C@H]2CCCCN(C(=O)/C=C/CN(C)C)C2)ccn1 | Trypanosoma brucei brucei |  | 2T1 CLK1 overexpressing | 10 µM, compound pretreated | baseline: maximum | survival | 16.8% and 16.5% and 26% and 22.3%
CCN(Cc1ccccc1)C(=O)CCc1nc(CN2CCN(C(=O)Cc3ccc(OC)c(OC)c3)CC2)no1 |  | current clamp | DRG neurons, naive rat | 10 µM |  | rheobase | 525 ± 93 pA
COc1ccccc1-c1n[nH]c2nc(N[C@H]3CC[C@H](NS(=O)(=O)CC(C)C)CC3)ncc12 |  | bead binding, competition bead pull-down, measured: LINJ.32.3470 | Leishmania donovani extract | 10 µM | baseline: vehicle | relative abundance | 0.9
CCOC(=O)C1(CC=C(C)C)Oc2cc(F)ccc2N(CC=C(C)C)C1=O (stereo not shown) | Arabidopsis thaliana | stem length, petri dish germination | Col-0, 1/2 MS medium | 200 µg/mL, 7 days, 22 °C, dark |  | inhibition | 51.1%
Cc1cc(Oc2nc(N3CC[C@@H](c4ccncc4)C3)ncc2F)[nH]n1 | Mycobacterium tuberculosis | OD | H37Rv PurF CRISPRi knockdown | 0.01563 µM, together with: anhydrotetracycline low |  | normalised growth | 20% and 17% and 30%
CC1CCC2C(C)C(CCCOC(=O)C(Cc3ccc(N(CCCl)CCCl)cc3)NC(=O)OC(C)(C)C)OC3OC4(C)CCC1C32OO4 (stereo not shown) | 7702 normal human cells | cell growth, CCK-8 |  | 48 h |  | IC50 | 36.3 µM
CSCC[C@H](NC(=O)[C@@H](N)CSC1CC(=O)N(CCNC(=O)COc2ccc(/C=C/C3=[N+]4C(=Cc5ccc(-c6cccs6)n5[B-]4(F)F)C=C3)cc2)C1=O)C(=O)N[C@@H](CCC(=O)O)C(=O)N[C@@H](Cc1ccccc1)C(=O)N[C@H](C(=O)N[C@@H](C)C(=O)N[C@@H](CCCCN)C(=O)N[C@@H](CC(C)C)C(=O)N[C@@H](Cc1ccccc1)C(=O)N[C@@H](CCCCN)C(=O)N[C@@H](Cc1ccccc1)C(=O)N[C@@H](Cc1ccccc1)C(=O)N[C@@H](CCCCN)C(=O)N[C@@H](CC(=O)O)C(=O)N[C@@H](CC(C)C)C(=O)N[C@@H](CC(C)C)C(=O)NCC(=O)N[C@@H](CCCCN)C(=O)N[C@@H](Cc1ccccc1)C(=O)N[C@@H](CC(C)C)C(=O)NCC(=O)N[C@@H](CC(N)=O)C(=O)N[C@@H](CC(N)=O)C(=O)O)C(C)C (stereo partly shown) | mouse alpha-synuclein preformed fibrils |  |  | 2 µM, 30 min, emission 735 nm, together with: 10 µM fibrils |  | fluorescence excitation increase | 7.6 fold
CC(C)(C)C(=O)OCOP(=O)(OCOC(=O)C(C)(C)C)C1CCCN(O)C1=O (stereo not shown) | Hs-578T |  |  |  |  | TGI | 8.27 µM
CC(C)C[C@@H]1NC(=O)[C@@H](Cc2c[nH]c3ccccc23)NC(=O)[C@H](CCCNC(=N)N)NC(=O)[C@@H](CCC(=O)O)NC(=O)[C@H](CCC(N)=O)NC(=O)[C@@H](CCC(=O)O)NC(=O)[C@H](CCCNC(=N)N)NC(=O)[C@@H](Cc2c[nH]c3ccccc23)NC1=O |  | measured: IL2 | LDLr-/- mouse on Western diet, liver | dose not given, 4 weeks |  | cytokine level | 80 ± 24 pg/g tissue
COc1c(NC(=O)c2ccc(NC(=O)c3ccc(NC(=O)[C@H](Cc4c[nH]nn4)NC(=O)c4ccc(NC(=O)/C(C)=C/c5ccc(O)cc5)cc4)cc3)c(OC)c2O)ccc(C(=O)O)c1O | Mycolicibacterium phlei | microbial growth, broth dilution | DSM750 |  |  | MIC | 4 µg/mL (≈ 4.52 µM)
O=C1NC2(CC2)COc2ncc(F)cc2[C@H]2COCCN2c2ccn3ncc1c3n2 |  |  | Sprague-Dawley rats, female, blood | oral, 20 mg/kg/day, end of treatment, 4-week subacute toxicity |  | basophil percentage | 0.06 ± 0.05%
COc1ccccc1-c1n[nH]c2nc(NC3CCN(C(=O)Cc4ccc(F)cc4F)CC3)ncc12 |  | bead binding, competition bead pull-down, measured: LMJF.36.6910 | Leishmania donovani axenic amastigote extract | 10 µM | baseline: vehicle | relative abundance | 1.17

Excerpt of the above:
Compound | tested on | test | system | conditions | scale | endpoint | value
CSCC[C@H](NC(=O)[C@@H](N)CSC1CC(=O)N(CCNC(=O)COc2ccc(/C=C/C3=[N+]4C(=Cc5ccc(-c6cccs6)n5[B-]4(F)F)C=C3)cc2)C1=O)C(=O)N[C@@H](CCC(=O)O)C(=O)N[C@@H](Cc1ccccc1)C(=O)N[C@H](C(=O)N[C@@H](C)C(=O)N[C@@H](CCCCN)C(=O)N[C@@H](CC(C)C)C(=O)N[C@@H](Cc1ccccc1)C(=O)N[C@@H](CCCCN)C(=O)N[C@@H](Cc1ccccc1)C(=O)N[C@@H](Cc1ccccc1)C(=O)N[C@@H](CCCCN)C(=O)N[C@@H](CC(=O)O)C(=O)N[C@@H](CC(C)C)C(=O)N[C@@H](CC(C)C)C(=O)NCC(=O)N[C@@H](CCCCN)C(=O)N[C@@H](Cc1ccccc1)C(=O)N[C@@H](CC(C)C)C(=O)NCC(=O)N[C@@H](CC(N)=O)C(=O)N[C@@H](CC(N)=O)C(=O)O)C(C)C (stereo partly shown) | mouse alpha-synuclein preformed fibrils |  |  | 2 µM, 30 min, emission 735 nm, together with: 10 µM fibrils |  | fluorescence excitation increase | 7.6 fold
